Results pooled from the literature.
Compare with care: the assays were run in different laboratories. ± gives the spread as reported.
ABCB1: ATP-dependent translocase ABCB1 (ABCB1, Homo sapiens, UniProt P08183)
Chain of UniProt P08183 (whole entry, looked up): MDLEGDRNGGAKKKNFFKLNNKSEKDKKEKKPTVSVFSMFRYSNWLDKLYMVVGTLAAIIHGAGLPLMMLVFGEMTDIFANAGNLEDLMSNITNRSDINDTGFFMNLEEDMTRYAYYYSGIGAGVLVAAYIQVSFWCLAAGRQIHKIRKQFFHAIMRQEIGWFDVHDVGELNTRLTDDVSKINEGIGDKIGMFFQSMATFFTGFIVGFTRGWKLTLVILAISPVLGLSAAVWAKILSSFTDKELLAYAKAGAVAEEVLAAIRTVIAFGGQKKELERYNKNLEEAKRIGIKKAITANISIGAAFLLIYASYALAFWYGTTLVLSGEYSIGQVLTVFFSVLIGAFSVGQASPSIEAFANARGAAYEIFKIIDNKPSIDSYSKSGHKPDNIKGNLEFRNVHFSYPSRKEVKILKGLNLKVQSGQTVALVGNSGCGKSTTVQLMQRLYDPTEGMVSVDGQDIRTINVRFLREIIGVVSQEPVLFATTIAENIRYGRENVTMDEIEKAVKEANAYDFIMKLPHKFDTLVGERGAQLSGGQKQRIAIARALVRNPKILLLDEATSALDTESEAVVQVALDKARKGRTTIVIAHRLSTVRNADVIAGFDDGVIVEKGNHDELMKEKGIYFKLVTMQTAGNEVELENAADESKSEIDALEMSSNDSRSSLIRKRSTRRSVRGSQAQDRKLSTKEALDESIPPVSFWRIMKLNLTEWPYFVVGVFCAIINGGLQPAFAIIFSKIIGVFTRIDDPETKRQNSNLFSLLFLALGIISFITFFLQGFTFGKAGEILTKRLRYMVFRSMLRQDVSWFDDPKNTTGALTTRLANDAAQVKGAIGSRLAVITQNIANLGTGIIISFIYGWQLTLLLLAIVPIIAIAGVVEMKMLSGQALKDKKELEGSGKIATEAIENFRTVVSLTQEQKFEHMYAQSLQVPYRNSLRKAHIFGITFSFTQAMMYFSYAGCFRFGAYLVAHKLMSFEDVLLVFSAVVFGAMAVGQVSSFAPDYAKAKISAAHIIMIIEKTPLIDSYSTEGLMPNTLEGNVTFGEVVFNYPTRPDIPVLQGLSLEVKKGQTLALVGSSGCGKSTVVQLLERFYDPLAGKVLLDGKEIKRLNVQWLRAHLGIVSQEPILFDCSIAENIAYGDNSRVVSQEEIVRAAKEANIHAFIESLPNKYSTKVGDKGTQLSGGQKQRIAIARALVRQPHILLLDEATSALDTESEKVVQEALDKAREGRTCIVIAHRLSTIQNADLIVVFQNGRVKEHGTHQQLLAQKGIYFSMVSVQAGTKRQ
Chain of UniProt O43704 (whole entry, looked up): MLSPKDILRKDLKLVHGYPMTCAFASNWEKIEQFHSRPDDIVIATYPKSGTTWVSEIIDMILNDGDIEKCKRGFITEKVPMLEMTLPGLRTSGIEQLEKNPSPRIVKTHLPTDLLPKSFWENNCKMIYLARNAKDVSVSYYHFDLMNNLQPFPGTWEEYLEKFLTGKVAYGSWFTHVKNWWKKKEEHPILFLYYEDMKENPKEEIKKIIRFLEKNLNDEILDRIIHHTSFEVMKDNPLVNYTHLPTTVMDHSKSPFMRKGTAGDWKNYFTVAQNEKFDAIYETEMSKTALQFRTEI
Chain of UniProt P10635 (whole entry, looked up): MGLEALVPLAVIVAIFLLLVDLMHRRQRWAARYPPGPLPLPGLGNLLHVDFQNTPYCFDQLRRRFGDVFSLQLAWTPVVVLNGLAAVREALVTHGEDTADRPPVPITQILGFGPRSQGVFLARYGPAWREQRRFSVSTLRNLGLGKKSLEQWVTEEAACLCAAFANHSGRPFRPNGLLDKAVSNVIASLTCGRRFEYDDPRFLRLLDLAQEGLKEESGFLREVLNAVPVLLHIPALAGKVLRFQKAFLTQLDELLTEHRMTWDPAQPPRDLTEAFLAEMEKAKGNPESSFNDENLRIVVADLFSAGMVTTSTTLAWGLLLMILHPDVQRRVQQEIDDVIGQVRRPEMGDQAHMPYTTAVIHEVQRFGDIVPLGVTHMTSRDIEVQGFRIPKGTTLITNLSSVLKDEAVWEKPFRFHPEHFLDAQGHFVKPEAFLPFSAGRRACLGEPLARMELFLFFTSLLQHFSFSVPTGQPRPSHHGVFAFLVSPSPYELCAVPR
Chain of UniProt Q14994 (whole entry, looked up): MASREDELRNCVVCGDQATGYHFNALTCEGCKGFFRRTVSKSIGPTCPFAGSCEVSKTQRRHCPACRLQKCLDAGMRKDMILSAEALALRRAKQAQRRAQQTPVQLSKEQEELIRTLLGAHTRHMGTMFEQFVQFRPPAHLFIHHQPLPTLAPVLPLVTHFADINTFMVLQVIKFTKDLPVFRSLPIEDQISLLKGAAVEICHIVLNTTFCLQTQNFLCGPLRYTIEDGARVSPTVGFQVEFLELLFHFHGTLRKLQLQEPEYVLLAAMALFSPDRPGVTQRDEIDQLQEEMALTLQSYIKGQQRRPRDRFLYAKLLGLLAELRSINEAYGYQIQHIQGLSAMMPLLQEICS

Compound	target	assay	test system	setting	scale	measurement	result
O=C(c1ccoc1)N1CCN(c2cc(-c3ccccc3F)nc3cc(-c4cccc(Cl)c4)nn23)CC1	ABCB1	JC-1 efflux, inhibitor	Jurkat-DNR	–	–	IC50	4.69 ± 1.5 µM
COc1ccc([C@@H](C)NC(=O)c2csc([C@@H](NC(=O)c3csc([C@@H](NC(=O)OC(C)(C)C)C(C)C)n3)C(C)C)n2)cc1	ABCB1	efflux transport, inhibitor, flow cytometry	HeLa, BacMam P-gp transduced	10 µM, 45 min, added: Bodipy-FL-prazosin	relative to: 1 µM tariquidar	inhibition	88%
CC1=N[C@]2(C(=O)CO)[C@@H](C[C@H]3[C@@H]4C[C@@H](O)C5=CC(=O)C=C[C@]5(C)[C@H]4[C@@H](O)C[C@@]32C)O1	Cytochrome P450 2D6 (CYP2D6, Homo sapiens, UniProt P10635)	–	pooled human liver microsomes	30 min preincubation, added: dextromethorphan probe and NADPH	–	IC50	> 50 µM
CC(C)(C)NC(=O)[C@@H]1C[C@@H]2CCCC[C@@H]2CN1C[C@@H](O)[C@H](Cc1ccccc1)NC(=O)[C@H](CC(N)=O)NC(=O)c1ccc2ccccc2n1	complex I	oxygen consumption acceleration	BALB/cByJ female mouse liver mitochondria	60 min, added: malate + glutamate	–	EC20	30.4 µM
C=CC(=O)N1C[C@H](Nc2ncnc3[nH]ccc23)CC[C@@H]1C	CYP3A	–	human, plasma	oral, 30 mg, 5 days, added: itraconazole 200 mg once daily	relative to: with over without itraconazole	AUC(0-inf) ratio	115%
COc1cccc(-c2cc(N3CCN(C(=O)c4ccoc4)CC3)n3nc(-c4cccc(Cl)c4)cc3n2)c1	ABCB1	JC-1 efflux, inhibitor	Jurkat-DNR	–	–	IC50	2.17 ± 1.02 µM
CC[C@H](C)[C@H](NC(=O)[C@H](Cc1ccc(O)cc1)NC(=O)[C@@H](NC(=O)[C@@H](N)CCCN=C(N)N)C(C)C)C(=O)N[C@@H](Cc1c[nH]cn1)C(=O)N1CCC[C@H]1C(=O)N[C@@H](Cc1ccccc1)C(=O)O	trypsin	substrate, LC-MS	–	20 µM, 4 h, pH 7.4, added: Aβ1-28 10 µM, MINP(β1-14) and MINP(β15-28)	–	peptide hydrolysed	87.1 ± 4.4%
Nc1ccc(S(=O)(=O)Nc2ccnn2-c2ccccc2)cc1	mitochondrial cytochrome P450 rat	inhibitor	–	10 µM, 60 min, pH 7.4	–	inhibition	17%
O=C1C[C@@H](c2ccc(O)cc2)Oc2cc(O)cc(O)c21	Sulfotransferase 1B1 (SULT1B1, Homo sapiens, UniProt O43704)	substrate	–	10 µM	–	specific activity	0.56 ± 0.03 nmol/min/mg
O=S(=O)(c1ccccc1)N1CCN(c2cc(-c3ccccc3)nc3cc(-c4cccc(Cl)c4)nn23)CC1	ABCB1	JC-1 efflux, inhibitor	Jurkat-DNR	–	–	IC50	> 50 µM
CCOC(=O)c1csc([C@@H](N)C(C)C)n1	ABCB1	calcein-AM efflux, flow cytometry	HeLa transduced with BacMam ABCB1	20 µM, 10 min, 5% FBS, added: calcein-AM 0.5 µM	relative to: 1 µM tariquidar	inhibition	< 5%
c1ccc2c(c1)CC(NCc1c(-c3ccc4ccccc4c3)nc3occn13)C2	Nuclear receptor subfamily 1 group I member 3 (Homo sapiens, UniProt Q14994)	reporter gene, agonist	HepG2-CYP2B6 cells	unit not given	relative to: CITCO	Emax	4.9
O=C(c1ccoc1)N1CCN(c2cc(-c3cccnc3)nc3cc(-c4cccc(Cl)c4)nn23)CC1	ABCB1	JC-1 efflux, inhibitor	Jurkat-DNR	–	–	IC50	0.77 ± 0.28 µM
Cc1ccc(Nc2nccc(N(C)c3ccc4c(C)n(C)nc4c3)n2)cc1S(N)(=O)=O	ABCB1	bidirectional transport	MDCK-MDR1	5 µM, 240 min, added: canertinib 5 µM	–	Papp A-B	3.3 ± 0.1 ×10⁻⁶ cm/s

For quick reference, copied from above:
Compound	target	assay	test system	setting	scale	measurement	result
c1ccc2c(c1)CC(NCc1c(-c3ccc4ccccc4c3)nc3occn13)C2	Nuclear receptor subfamily 1 group I member 3 (Homo sapiens, UniProt Q14994)	reporter gene, agonist	HepG2-CYP2B6 cells	unit not given	relative to: CITCO	Emax	4.9
